# Measured values collected from several papers.
# Protocols differ between the studies behind these lines. ± marks the error that the study gave.
Compound,organism,assay,test system,conditions,how to read,measurement,result
O=C1CC(c2ccc(O)cc2)Oc2cc(O)cc([O][Ga+][O]c3cc(O)cc4c3C(=O)CC(c3ccc(O)cc3)O4)c21 (stereo not shown),Pseudomonas aeruginosa,RNA-seq,PAO1,"4 µM, 4 h",,number of upregulated genes,749
CC(C)(C)c1ccc(NC(=S)N/N=C/c2ccccc2O)cc1,Candidozyma auris,broth microdilution,922,,relative to: hit compound,MIC fold improvement,64 fold
CC(C)C[C@@H]1NC(=O)[C@H](CCCCN)NC(=O)[C@H](C(C)C)NC(=O)[C@@H]2CCCN2C(=O)[C@@H](Cc2ccc(O)cc2)NC(=O)[C@H](CC(C)C)NC(=O)[C@H](CCCCN)NC(=O)[C@H](C(C)C)NC(=O)[C@H](CCCCN)NC(=O)[C@H](CC(C)C)NC(=O)[C@H](CCCCN)NC(=O)[C@@H]2CCCN2C(=O)[C@@H](Cc2ccc(O)cc2)NC(=O)[C@H](CCCCN)NC(=O)[C@H](C(C)C)NC(=O)[C@H](CCCCN)NC1=O,Gram-positive bacteria,,,"24 h, 7 strains",,MIC geometric mean,1.8 µg/mL
O=c1c(O)cccc(S(=O)(=O)Cc2ccccc2)c1O,Cryptococcus neoformans,"microbial growth, broth dilution",,13 h,,MIC80,50 µM
CC[C@H](C)[C@H](NC(=O)[C@H](CC(C)C)NC(=O)[C@@H](N)CS)C(=O)N[C@@H](CCC(=O)O)C(=O)N[C@@H](Cc1ccc(O)cc1)C(=O)NCC(=O)NCC(=O)N[C@@H](C)C(=O)N[C@@H](CC(=O)O)C(=O)N[C@@H](Cc1ccc(O)cc1)C(=O)N[C@@H](CCCCN)C(=O)N[C@H](C(=O)N[C@H](C(=O)N[C@@H](CC(N)=O)C(=O)N[C@@H](CC(C)C)C(=O)N[C@@H](CCCCN)C(=O)O)[C@@H](C)CC)[C@@H](C)O,infectious bursal disease virus,"qRT-PCR, measured: p65 mRNA","DT40 cells, IBDV-infected","50 to 100 nM, 12 h",relative to: IBDV-infected untreated,mRNA level,decreased
CC[C@H](C)[C@H](NC(=O)CNC(=O)CNC(=O)[C@@H](N)CO)C(=O)NCC(=O)N1CCC[C@H]1C(=O)N[C@@H](CC(C)C)C(=O)N[C@H](C(=O)N[C@H](C(=O)N1CCC[C@H]1C(N)=O)[C@@H](C)CC)C(C)C,Clostridioides difficile,,Caco-2,concentration not given,,reduction of proinflammatory cytokines,< 20%
CC(=O)NC(CC(C)C)C(=O)NC(=O)C(CC(C)C)NC(C=O)CCCN=C(N)N (stereo not shown),Plasmodium vivax,parasite growth,,"100 µM, 40 h",,inhibition,82.6 ± 1.2%
C#CCN1CCc2c([nH]c3ccccc23)C(=C)C1=O,Hepatitis B virus,"viral replication, inhibitor, qPCR",HePAD38,5 µM,,inhibition,~10%
Cc1ccc(/C=N/N=C/c2ccc([N+](=O)[O-])o2)cc1,Trypanosoma brucei gambiense,"parasite growth, CellTiter-Glo",IL1922 bloodstream form,72 h,,IC50,3.68 ± 1.43 µM
C=C(C)[C@@H]1CC[C@]2(CO)CC[C@]3(C)[C@H](CC[C@@H]4[C@@]5(C)CCCNC(C)(C)[C@@H]5CC[C@]43C)[C@@H]12,Human alphaherpesvirus 1,cytopathic effect,"HFF, E-377",,,EC90,> 6 µM
CS(=O)(=O)c1cccc(O)c(=O)c1O,Hepatitis B virus,"viral replication, inhibitor",HepDES19,,,EC50,0.55 µM
NC(CNC(CNC(CC(=O)O)C(=O)O)C(=O)O)C(=O)O (stereo not shown),"Enterobacteriaceae, Acinetobacter, Pseudomonas",inhibitor,VIM-positive clinical isolates,"8 µg/mL, with: meropenem 2 µg/mL",,isolates with restored meropenem susceptibility,90%
CC(C)C[C@@H]1NC(=O)[C@H](CCCCN)NC(=O)[C@H](C(C)C)NC(=O)[C@@H]2CCCN2C(=O)[C@@H](Cc2ccc(O)cc2)NC(=O)[C@H](CC(C)C)NC(=O)[C@H](CCCCN)NC(=O)[C@H](C(C)C)NC(=O)[C@@H]2CCCN2C(=O)[C@@H](Cc2ccc(O)cc2)NC1=O,Gram-positive bacteria,,,"24 h, 7 strains",,MIC geometric mean,1.2 µg/mL
CC[C@H](C)[C@H](NC(=O)[C@H](CCCCN)NC(=O)[C@H](CC(N)=O)NC(=O)[C@H](CC(C)C)NC(=O)[C@H](Cc1ccccc1)NC(=O)[C@H](CCCCN)NC(=O)[C@H](CCCCNC(=N)N)NC(=O)[C@H](CC(C)C)NC(=O)[C@H](CC(C)C)NC(=O)[C@H](CCCCN)NC(=O)[C@H](CCCCNC(=N)N)NC(=O)[C@H](CC(C)C)NC(=O)CNC(C)=O)C(=O)N[C@@H](CCCCN)C(=O)N[C@@H](CCCCNC(=N)N)C(N)=O,Gram-positive bacteria,,,,,geometric mean MIC,3.13 µM
C[C@@H]1C(=O)O[C@@H](C)/C=C/C=C\[C@@H](C)[C@@H]2C=C[C@@H]3C[C@@]4(C)O[C@H]4[C@@H](C)[C@H]3[C@@H]2C(=O)C(Cl)(Cl)C1=O,Staphylococcus aureus,,MSSA and MRSA clinical isolates,,,MIC range,0.0125 to 0.2 µg/mL
CN[C@H](C)C(=O)N[C@H](C(=O)N1CC[C@@H]2Oc3ccc(OC)c(c3)/C=C\NC(=O)[C@H](Cc3ccccc3)NC(=O)[C@H]21)C(C)C,porcine epidemic diarrhea virus,,Vero cells,,relative to: CC50 over EC50,selectivity index,26.8 ± 0.54
Cc1ncc([N+](=O)[O-])n1CCOCc1nnc(SCC(=O)c2ccc(F)cc2)o1,viridans streptococci,,DMSO,"60 µg/mL, 24 h, 37 °C",,inhibition zone diameter,15 to 20 mm
O=[N+]([O-])c1ccc(/C=N/N=C/c2ccccc2)o1,Trypanosoma evansi,"parasite growth, CellTiter-Glo",Tansui bloodstream form,72 h,,IC50,3.71 ± 2.04 µM
CC[C@@H](C)[C@@H](NC(=O)[C@@H](C)NC(=O)[C@@H](CCCCN)NC(=O)[C@@H](CC(C)C)NC(=O)[C@@H](C)NC(=O)[C@H](NC(=O)[C@@H](Cc1c[nH]cn1)NC(=O)[C@@H](CC(C)C)NC(=O)[C@H](NC(=O)[C@H](NC(=O)[C@@H](CCCCN)NC(=O)[C@H](NC(=O)[C@@H](C)NC(=O)[C@@H](CO)NC(=O)[C@@H](CCCCN)NC(=O)[C@@H](Cc1ccccc1)NC(=O)[C@H](NC(=O)[C@@H](CCCCN)NC(=O)[C@@H](CC(C)C)NC(=O)[C@@H](Cc1ccccc1)NC(=O)[C@@H](CO)NC(=O)[C@@H](CCCCN)NC(=O)[C@@H](Cc1c[nH]c2ccccc12)NC(=O)[C@@H](CCCCN)NC(C)=O)[C@H](C)O)C(C)C)[C@H](C)O)C(C)C)[C@H](C)O)C(=O)N[C@H](CO)C(=O)N[C@H](CO)C(N)=O,Acinetobacter baumannii,,11 isolates,"24 h, 37 °C",,MIC geometric mean,0.7 µM
Cc1ccc(/C=N/N=C/c2ccc([N+](=O)[O-])s2)cc1,Trypanosoma evansi,"parasite growth, CellTiter-Glo",Tansui bloodstream form,72 h,,IC50,5.17 ± 1.58 µM
C=C(C)[C@@H]1CC[C@]2(C(=O)n3ccnc3)CC[C@]3(C)[C@H](CC[C@@H]4[C@@]5(C)CCCNC(C)(C)[C@@H]5CC[C@]43C)[C@@H]12,Human alphaherpesvirus 1,cytopathic effect,"HFF, E-377",,,EC90,> 6 µM
O=c1c(O)cccc(Sc2ccccc2)c1O,Cryptococcus neoformans,"microbial growth, broth dilution",,13 h,,MIC80,1.5 µM
O=[N+]([O-])c1ccc(/C=N/N=C/c2ccc(OCc3ccccc3)cc2)s1,Trypanosoma brucei gambiense,"parasite growth, CellTiter-Glo",IL1922 bloodstream form,72 h,,IC50,4.6 ± 0.73 µM
O=C(Nc1ccccc1Nc1ccccc1)c1cccnc1F,Botrytis cinerea,microbial growth,,50 µg/mL,,inhibition,40.5%
CC(=O)OC[C@H]1O[C@@H](Sc2sc(C(=O)c3ccc(Br)cc3)c(N)c2-c2nc3ccccc3s2)[C@H](OC(C)=O)[C@@H](OC(C)=O)[C@@H]1OC(C)=O,Hepatitis C virus,,"Huh7.5, genotype 4","non-toxic dose NG, mean over three titres",,viral reduction,63.3%
Fc1ccc2c(c1)c1nc3ccc(Br)cc3c-1cn2Cc1cn(-c2ccccc2I)nn1,Giardia duodenalis,"UHPLC-Q-TOF-MS, measured: PC(15:0/0:0)",trophozoites,"IC50, 0.1407 h",relative to: 0.25% DMSO,fold change,3.9
Brc1ccc(-c2c[nH]c(-c3ccccn3)n2)cc1,Schistosoma mansoni,,adult male worms,25 µM,,worm killing,25%
O=[N+]([O-])c1ccc(/C=N/N=C/c2ccc(Cl)cc2)s1,Trypanosoma evansi,"parasite growth, CellTiter-Glo",Tansui bloodstream form,72 h,,IC50,1.34 ± 0.02 µM
CCN(CC)CC#CCNc1ccnc2cc(Cl)ccc12,Plasmodium vivax,schizont maturation,field isolates,20% human serum,,IC50,0.235 µM
Cc1ccc(Sc2cccc(O)c(=O)c2O)cc1,Hepatitis B virus,"viral replication, inhibitor",HepDES19,,,EC50,17 µM
O=[N+]([O-])c1ccc(/C=N/N=C/c2ccccc2)s1,Trypanosoma evansi,"parasite growth, CellTiter-Glo",Tansui bloodstream form,72 h,,IC50,0.42 ± 0.02 µM
